Assay results gathered from unrelated publications.
Numbered parts are unrelated; each lists some results of a single study.

Set 1
Target: Interferon regulatory factor 7, full length, phosphomimetic (IRF7, Homo sapiens, UniProt Q92985, residues 1-503, S471D/S472D/S475D/S476D/S477D/S483D/S484D/S487D)
Method: protein-binding microarray
Form: double-stranded DNA, one strand shown
Matrix: in vitro
Tested at: 2200 nM top
Notes: 60-bp whole probe
With: salmon DNA 0.4 mg/ml
Relative to: random background probes
Direction: higher = stronger binding
All sequences stand within: GCCTAGCAC … GTCTTGATTCGCTTGACGCTGCTG
Construct (chain): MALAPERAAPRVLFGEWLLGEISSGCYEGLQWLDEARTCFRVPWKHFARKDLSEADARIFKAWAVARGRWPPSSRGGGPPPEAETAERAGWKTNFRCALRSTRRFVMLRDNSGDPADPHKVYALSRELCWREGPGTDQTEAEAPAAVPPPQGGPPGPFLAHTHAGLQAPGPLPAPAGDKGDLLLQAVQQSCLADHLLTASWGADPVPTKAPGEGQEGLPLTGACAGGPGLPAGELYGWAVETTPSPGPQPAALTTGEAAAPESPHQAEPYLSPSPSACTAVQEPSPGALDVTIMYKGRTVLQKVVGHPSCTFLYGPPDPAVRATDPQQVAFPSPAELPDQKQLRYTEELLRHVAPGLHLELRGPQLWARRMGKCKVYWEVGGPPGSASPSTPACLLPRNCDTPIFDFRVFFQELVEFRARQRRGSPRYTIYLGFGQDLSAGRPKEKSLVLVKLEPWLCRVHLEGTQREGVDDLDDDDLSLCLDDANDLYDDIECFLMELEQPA
Sequence	fitted relative affinity [z-score]
GACGGACTGGTTATCGGGACGTGCTAG	-0.198
GACGATATCGGGTATCGAGTCGTGCTA	0.528
GTAGATATCGGGACTGGATTAGTGCTA	-0.265
GACGATATCTGGTTTCGAGACGTGCTA	2.8
GCCTTTATATACCTGAATATGTGCTAG	0.805
GACGATAACAGTTTCGAGACGTGCTAG	2.96
GACGGTATCCCACTGCTGACGTGCTAG	0.59
TCAAATATTTACCTCTCACTGTGCTAG	0.816
TTAGAACTGAGTTTCGATTTGTGCTAG	8.75
TTAGGTATCGGGACTGAGTTAGTGCTA	-0.176
TTAGGTTTAGGGTTTCGGTTAGTGCTA	3.16
TTAGATTTCGGGACTGGATAAGTGCTA	0.827
TTAGGTTTCGATACTGGGTTAGTGCTA	3.97
TCATGTCTGGGATGTAATACTGTGCTA	0.47
GACGATATCAGTCTCGAGAAGTGCTAG	0.222
GACGGACTGGTTTTCCTGACGTGCTAG	0.289
GGTACTCACCTCCAGGCTGAGTGCTAG	-0.292
GAGGGTATCCTACTGCTGACGTGCTAG	-0.246
CCTATCTTATGATATATATAAGTGCTA	0.801
TCATTTATGGTTTTTTTACTGTGCTAG	1.5
GACGGACTGGCACTGGGGACGTGCTAG	-0.965
CTTTTTTTGGTAATAGTGAAGTGCTAG	0.91
GAAGATCTCAGTCTCGAGACGTGCTAG	-0.149
TTAGGTTTCCTACTGCCTTAGTGCTAG	1.2
TTGGCTTATTCCAGATTTTTGTGCTAG	0.439

Set 2
Organism: Saccharomyces cerevisiae
Effect on: binding
Method: competitive growth deep sequencing
Form: peptide
Strain: cyclin E1-Cln2 fusion strain
Notes: peptide tiling library
Direction: direction not given
Molecule	enrichment score
DWDTVERQEEEAPSWD	2.16
RKLHFEDEVT	2.59
NFETPEAETPIRSPFK	1.4
LRRKLFLDGNGSIS	-1.04
SCCKRKLVVGNGPEGP	-1.12
NNIRKALSFDNRGEEH	-1.69
PPKPLKKLRFDIEGSD	-0.102
VSRNLRSSLKSSLHTL	-1.88
LRRQLSFSED	0.907
RRVLCFDS	0.311
TTTTSPRTPPPLTVQD	1.19
PPTFLSTGEIHAFLSS	-0.0906
GAEELEDLVHFSVSEL	2.2
KVKRRLDLDIDGLQKE	0.674
GFGFLLFICKLTF	0.46
ARKRLELGNLGNPQ	-0.965

Set 3
Target: Histone acetyltransferase KAT6A, winged helix 1, GST fusion (KAT6A, Homo sapiens, UniProt Q92794, residues 1-85)
Method: protein binding microarray
Form: double-stranded DNA, one strand shown
Matrix: in vitro
Tested at: not given
Notes: 8-mer, flanks averaged, mean of 2 arrays, mostly near background
Relative to: not given
Direction: higher = stronger binding
Target sequence (chain): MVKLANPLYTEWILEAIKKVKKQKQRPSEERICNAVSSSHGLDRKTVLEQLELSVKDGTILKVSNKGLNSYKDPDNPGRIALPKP
Sequence	E-score
ATGAATAG	-0.141
AGTCGGGA	0.148
AATTATGG	-0.0209
CTTTCCGA	0.108
CATCTAGC	-0.0985
AGCTACAT	-0.144
ATAAACAT	-0.0933
CAATTTTA	-0.135
GGAAATCC	0.0721
TGAAACCA	-0.0293
CTCGGTCA	0.00276
CCTTACCA	-0.1
ACGGGTGA	0.282
CCAGTAAA	-0.13
AGCTCCGC	0.233
ATGCTCGA	-0.193
GGTGGGAA	-0.136
GGTAAATA	0.0326
AGTCATAG	-0.211
CTTTACGC	0.213
ACCCAATC	-0.209
ATTAATAC	-0.0466
ATCTAGGA	-0.0556
GACCCATC	-0.0101
CATCTGAG	0.0339

Set 4
Target: RNA binding protein fox-1 homolog 2, RRM domain, GST-SBP tag (RBFOX2, Homo sapiens, UniProt O43251-10, residues 100-194)
Method: RNA Bind-n-Seq
Form: RNA
Matrix: in vitro
Tested at: 365 nM
Notes: natural RNA segment, single round, ends assumed
Relative to: no-protein control
Direction: higher = stronger binding
All sequences stand within: GGGAGUUCUACAGUCCGACGAUC … UGGAAUUCUCGGGUGCCAA
Target sequence (chain): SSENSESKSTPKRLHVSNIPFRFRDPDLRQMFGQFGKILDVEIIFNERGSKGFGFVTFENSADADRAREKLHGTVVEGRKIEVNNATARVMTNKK
Sequence	RBNS enrichment (R)
CAAGCUGAGGGAUACAGGUCCUGAUUUGGUAGGAAUAUUAUUCCCAAGAAAUACCCGCUCCUCACCUACUCCCUCAUCCUACCAAGGUGCCUGAAAAUGUUCAAGACUUA	0.859
AGAAGCUCUGAAGCCCAUGUAUGGCAUGGAUUGUGGAAGACUGGGCAACAUAUUUAAGAUUUCCAGCUCCUUGUGUAUAUGAAUGCAUUUGUAAGCAUCCCCCAAAUUAU	11.1
UUCCAGCAGACCGGGUGCAUCCCUUUUCCUAAUACCUAAUAAAGAGCUUGACAGUGAUAUCCGCCAUCUGCCUUGGGGUCUGAGAAUAAGCGGGAGUUAGAGGGAUGUCU	0.388
GAAAAACAAAUGGCCUCAACUUGAUCUUACCUGAGUAACCAAGGCUGCUUUUGCUUUGGGUACAGCUAUUUAGUUAGUUGUGUUACAAAGAAUUAUUUUCUGAGAGAAUC	0.346
CCCGCAGGCAAAUUGGAUGGGCGUCUGGCCGCCGUGGAGUUCCGGUGACCCAUUUCCCCAGCCGUGUCGUCUCCAGGACCACCCGAUGGAAAUAACAGGCGGGCUUCACG	0.586
UUAAAUGAUGUAAUUCCCACUGUAAUAGCAUAGGGAUUUUGGAAGCAGCUGCUGGUGGCUUGGGACAUCAGUGGGGCCAAGGGUUCUCUGUCCCUGGUUCAACUGUGAUU	0.657
UUUUGGCCUGUAAGACACUUUAGAGAUUCCUAACAGAGUUUACUGUUGUUUAGAAAUUUGCAAGGGCUUUUUUUCAGCAAUGCCACCAGCAGAUUAUAAUCUUGUCAACA	0.584
AUAAGCCUCAGGCCCUGGGAAACCUCCCGACCCCUGCACCUUCGUUGGAGCCCCUGCAUCCCCUGGGUCCAGCCCCCUCUGCAUUUACACAGAUUUGAGUCAGAACUGGA	0.934
GAGAGGAGCAGUUCAGUUUACAAAACAAGUGCAAAUUACCAAACUCAAAGCUUAUUUGAGUAGAAUGGGCUCAUGGGCAAUGUGAUGUUCCCUGUUAACCUUCUGUUACU	0.508
UGGCGCCGUGUCAGGGAAGACCUUGUACACCGGGAAGCAAGCGUGGCUUCAGGCCGAGCGUGGAGUAGCUCUGCAGUCUGCAUGAAUCGGCCUUUGAUCUGGCCAAGUCU	3.32
AGCGGGGCCUGGCGGGAUGGGCCACCGCCGACUUUGUACCCCCCAACCCCUGAGGAAGAUGGGGGCAAGAAGAUCACGCUCCCCGCCUGUUCCCCCGCCGCUUUUCUCCU	0.384
UAAAGAAAGAGCAGCCUUUGUUAAUUUACUGUGGAGUUACAACCCGCAUGCUCCCUACUCCCCCACGUCUUGAUGGAACAGGUGCAUUCAAGCUAGGAAACGGAGAGAAC	2.11

Set 5
Target: PABPC1L2, full length, GST fusion (mouse, UniProt A0ABA7IW68)
Method: RNAcompete
Form: RNA
Matrix: in vitro
Tested at: 20 nM
Notes: 7-mer, probes averaged, single round
Relative to: mean of 7-mers
Direction: higher = stronger binding
Construct (chain): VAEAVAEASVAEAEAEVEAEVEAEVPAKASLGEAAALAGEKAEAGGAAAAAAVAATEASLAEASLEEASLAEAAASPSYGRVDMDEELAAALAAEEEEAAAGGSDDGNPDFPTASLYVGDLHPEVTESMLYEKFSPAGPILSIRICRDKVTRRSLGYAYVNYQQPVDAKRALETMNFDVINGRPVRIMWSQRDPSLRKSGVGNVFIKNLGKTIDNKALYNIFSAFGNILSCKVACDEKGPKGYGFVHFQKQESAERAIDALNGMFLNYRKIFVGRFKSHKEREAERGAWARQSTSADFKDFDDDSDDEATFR
Sequence	7-mer Z-score
CAUAUUU	-0.157
GCAGGGC	0.0714
GAAUAAU	0.0533
UCAAUGA	-0.13
AAUGAUU	0.0986
GGGGAGA	0.49
AACAGUU	0.283
UCAUGAA	0.157
CAUUCAG	-0.0844
GUGAUAA	0.187
CAAGCGG	0.0768
UGCCAAG	-0.141
GAUCUCU	-0.338
GCGGGUU	-0.0409
UGAGCAU	-0.11
UCCGCCA	-0.409
AAGGCCA	0.113
ACACAUC	-0.155
UUGCGAG	-0.155
GUCGCUU	-0.456
CAUUCCA	-0.28
CAUCAUU	-0.273
UUAGCGG	0.106
GACUGGG	0.18
CAAUGUC	-0.257
